Measured values pooled from the literature.
Each numbered part is a random draw from the data of one study; scales do not carry over between parts.

Study 1
Target: Prothrombin, mature alpha-thrombin (F2, Homo sapiens, UniProt P00734)
Technique: aptamer microarray, sandwich
Form: DNA with 2'F-ANA
Sample: in vitro
Concentration: 200 nM
Setting: whole 15-mer aptamer, many near background
With: Cy3 exosite-II aptamer, 400 nM
Direction: higher = stronger binding
Strand: GGTTGGTGTGGTTGG
Modification	mean fluorescence intensity
2'F-ANA at 1 3 4 7 8 13 14	88.8 a.u.
2'F-ANA at 4 5 6 8 9 10 11 13 15	46.6 a.u.
2'F-ANA at 4 7 8 11	378 a.u.
2'F-ANA at 2 6 8 9 12	613 a.u.
2'F-ANA at 1 3 5 10 15	87.3 a.u.

Study 2
Target: Interferon regulatory factor 5, full length, phosphomimetic (IRF5, Homo sapiens, UniProt Q13568-2, residues 1-514, K96S/S451D/S453D/S456D/S462D)
Technique: protein-binding microarray
Form: double-stranded DNA, one strand shown
Sample: in vitro
Concentration: 250 nM
Setting: 60-bp whole probe
With: salmon DNA 0.4 mg/ml
Relative to: random background probes
Direction: higher = stronger binding
Shared flanks, not repeated: GCCTAGCAC … GTCTTGATTCGCTTGACGCTGCTG
Strand	log fluorescence [z-score]
TTAGGTTCCATTTTCCTTTAGTGCTAG	0.914
GTAGGTATCGACACTGGGTTAGTGCTA	2.17
TCATCTTCCCCTCTCATACTGTGCTAG	0.14
TTAGGACTCCTACTGCTTTAGTGCTAG	-0.331
TCATCTTGCTTTTTAGAACTGTGCTAG	0.494
GACGGTTTCGGGTTCGGGACGTGCTAG	7.03
TTAGGACTGCTTATCCTTTGGTGCTAG	-0.281
TTAGGTATCGGGACTGTGTTAGTGCTA	1.86

Study 3
Target: RING finger protein unkempt homolog, zinc fingers 1-6, GST-SBP tag (UNK, Homo sapiens, UniProt Q9C0B0, residues 30-357)
Sequence of UniProt Q9C0B0 (30-357, looked up): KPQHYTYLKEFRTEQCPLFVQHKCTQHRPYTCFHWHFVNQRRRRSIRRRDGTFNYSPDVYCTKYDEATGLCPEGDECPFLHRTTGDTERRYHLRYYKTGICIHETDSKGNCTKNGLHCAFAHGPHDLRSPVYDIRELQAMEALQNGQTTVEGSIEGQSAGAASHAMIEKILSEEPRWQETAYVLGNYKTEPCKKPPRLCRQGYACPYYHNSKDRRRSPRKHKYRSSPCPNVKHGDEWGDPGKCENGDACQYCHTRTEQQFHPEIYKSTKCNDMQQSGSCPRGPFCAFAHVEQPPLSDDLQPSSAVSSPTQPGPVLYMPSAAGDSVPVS
Technique: RNA Bind-n-Seq
Form: RNA
Sample: in vitro
Concentration: not given
Setting: RNA with constant flanks, human and mouse sites, ends assumed
Relative to: input RNA pool
Direction: higher = stronger binding
Strand	bound/input enrichment [ratio]
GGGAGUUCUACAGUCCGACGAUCAGCAGUCAUCUUAUCAAUCUUCUGAACCCUAAAGGAAAGCCAGCAAACCAGCUGCUUGCUCUCAGGACUUUUUGCAAUUGUUUUGUUGGCCAGGCAGGACAAAAACUCAUGAUGUCCCAGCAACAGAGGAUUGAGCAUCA	0.13
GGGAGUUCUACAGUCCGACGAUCUACUUGGCAUAUCGAAAUUUUAUGAUUGACACGUAUCGUCUAAACCCCCAAGAGUAUUUAACUAGCACUGCUUGUCGGAGGAACUUGACUGGAGAUGUGUGUGCUGUGAUGAGGGUCCAUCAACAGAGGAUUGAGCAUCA	0.44
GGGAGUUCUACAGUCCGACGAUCAAUCAUGCUUCUACAAGGUGAAGUGUGUUUGGGGAAACUGAGCUCUAACAAAAGCCGCGACAGCCACCAGGCAGGCUUUUCCUUAUACAUGACAGAAGUUCGUAUUACGCCUUGGAAGGUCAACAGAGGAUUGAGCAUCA	0.161
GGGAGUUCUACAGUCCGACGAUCGUAACCAUCUACCGGGAAGAAGGCAUCGUAGGAUUUUUUGCGGGUCUCAUUCCUCGCCUCCUAGGUGACAUCAUUUCUUUGUGGCUGUGUAACUCACUGGCCUAUCUCAUCAAUACCUAUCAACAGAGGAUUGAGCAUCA	0.318
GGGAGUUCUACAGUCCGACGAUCAUAUCCAUAUAUACCUUCCAGUGUUCACACAGGAUGGGGUUCCCAGCCUUGCAUGGUUGCUAGGUUGGGGGCAGGCCCAGUCUGCUCAAGGCCCACGAUGAUCUUGGUGCUCCAGGCAGGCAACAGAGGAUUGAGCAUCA	0.132
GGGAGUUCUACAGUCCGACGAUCGCUGUCAUGGAGGUCCAUUUCCUAAACCAAAAUACUCAAGCCUUCUUCAGAGUGUUUGGCUCUUGCAGCAAAACAAUCGAGAUGCUAAGUGGGAGGAUUACAAUGUUUGUAGAGCGACCCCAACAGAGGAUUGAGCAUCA	0.15
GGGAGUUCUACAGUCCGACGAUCUUGACAAAAGUACCAUGGAGUUUUAUGAGUCAGCAUAUUUUAUUGUUCUUAUUCCUUCAAUAGUUAUUACAGUAAUUUUCCUCUUCUUCUGGCUUUUCAUGAAAGAAACAUUAUAUGAUGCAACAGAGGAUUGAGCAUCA	5.24

Other studies, line by line
Molecule	target	test	system	setting	scale	measurement	value
PhoQ, residues 284 288 289 292 302 303 TNASYF	PhoP, residues 12 14 15 18 19 LWHVM (Escherichia coli, UniProt P23836)	Sort-seq, item: YFP reporter	E. coli	PhoQ-PhoP variant library, with: 10 µM Mg2+	relative to: high Mg2+ state, higher = stronger signaling	fold induction	4.76
